Measured values of several laboratories.
A part holds a random share of what one study measured.

Block 1 — method: protein binding microarray; form: double-stranded DNA, one strand shown; matrix: in vitro; tested at: not given; reference: not given; reading: higher = stronger binding; endpoint: E-score
Target: Histone acetyltransferase KAT6A, winged helix 1, GST fusion (KAT6A, Homo sapiens, UniProt Q92794, residues 1-85)
Notes: 8-mer, flanks averaged, mean of 2 arrays, mostly near background
Residues (chain): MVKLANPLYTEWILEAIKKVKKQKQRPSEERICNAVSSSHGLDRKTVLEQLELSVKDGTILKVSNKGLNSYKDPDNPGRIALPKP
TCAGGAGA: -0.197
TAGCAAGA: -0.217
AGGGGTCC: 0.0475
AAACGCTC: 0.12
ATGTCAAC: -0.19
CCTCAAAG: -0.243
ACAAGGCG: 0.109
CAAAGGTA: -0.122
CCCAGAGA: -0.261
CACGAGCC: -0.029
AACGCGAT: 0.122
AGTGGATA: -0.122
GAATTTTA: -0.173
CACGGAGG: 0.0599
GAGCCTAA: -0.229
ACGTGATC: 0.0987
GGGGGGCA: -0.101
ATATTCAT: -0.16
CTAGGCAC: -0.133
ACGCCAGG: 0.0242
AAGCGTTA: -0.016
CATACACC: 0.00191
TATCAAAA: -0.109
CGTTCATC: 0.0314
ATATTCTA: -0.191

Block 2 — method: RNA Bind-n-Seq; form: RNA; matrix: in vitro; tested at: 365 nM; reference: no-protein control; reading: higher = stronger binding; endpoint: RBNS enrichment (R)
Target: RNA binding protein fox-1 homolog 2, RRM domain, GST-SBP tag (RBFOX2, Homo sapiens, UniProt O43251-10, residues 100-194)
Notes: natural RNA segment, single round, ends assumed
Residues (chain): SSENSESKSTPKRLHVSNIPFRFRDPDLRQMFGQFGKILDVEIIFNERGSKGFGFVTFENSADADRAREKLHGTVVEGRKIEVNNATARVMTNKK
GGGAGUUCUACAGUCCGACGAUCAUUUGCUGUCGGGUUUCCAGUUUCACCGUGUGUUAGGGUGAGGGAUGAUUGUAAAAUUUGCUCCUCAAAGGAAUCAGGCCAGACUCAAUUUUGGAGGGCAAGACAGGGAGUGGAAUUCUCGGGUGCCAA: 0.962
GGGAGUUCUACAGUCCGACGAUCGAUGGAGUUGGUGACAAGAGCAGAGGAGCAAGAAUCCCUGCAAGCAGUAGACUGGUUUCCACUGGAGGGUGAAUGCAGAUACCUUUUAUUAACGAUAUACUUACUAAAUGUGGAAUUCUCGGGUGCCAA: 1.59
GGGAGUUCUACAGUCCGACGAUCCCCAGGCUGUCUCAGUGUCAUCAUGUUGCCAGGUCUUUGUGUUUCUGCAGCCCACAUGAUCCUUGAGAGUUUUGGGUUUCGGUAACACCUCAGGGCCACUGCAUUGUUUUUGGAAUUCUCGGGUGCCAA: 0.377
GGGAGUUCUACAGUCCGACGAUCGCAAUAAAAAUGAACCAAAGGAUAUUUCCAGAAAGGAUUAAGAAAGCUGUUUAAGAAGGCCAUGACUCUUUAGGUGUGUAUGUGUACCUUUCAGCAUCCUAGGAAUUUUUUGGAAUUCUCGGGUGCCAA: 0.492
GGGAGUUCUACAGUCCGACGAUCCAUCACAGAUGGGAGAAGGCCAUGCCAGCCACGUCCGCCGAGGGGCGCCAGCCUGAAGCUGCCAGGCCCUGAGGUUCAGACCCUGGACCCCAUAGCUGGAGGCCUGUGGUUGGAAUUCUCGGGUGCCAA: 0.179
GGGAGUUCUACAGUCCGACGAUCCAAAUAUCCUAAAAUAGGAAAUACUUGAACGUUUUAAUGAGAAAUUUCUAUGGUUGAAAUUCAUAGCCUUUCACUAUAGGAAAUGUUAAGAAAAAUUUAAACAGUUUAAGUGGAAUUCUCGGGUGCCAA: 0.627
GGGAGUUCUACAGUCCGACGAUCGAAGAGCCAGGUAGCACCUGAAAACGCUGCACGUGUGUUUGUGAAACCUGUAGUGAAGUAGACUUGGCCGUCCCUGGACAGUGAGGUCAGAUGUGAAUACAUAUUGUAAGUGGAAUUCUCGGGUGCCAA: 3.29
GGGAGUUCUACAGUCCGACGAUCUAAAGGCUGACAUCUGGGGUCUAGCCUAGCACCUGAAGAUACUUGUGAUGUCUAACUCUGCAUAGCCUUUUCUCUUCAUAUCUGCGGCCUAUCUUUUCCCCUUACAUAUGUGGAAUUCUCGGGUGCCAA: 0.839
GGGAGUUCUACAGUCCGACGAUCUCCCUUUUAAUCCAGAAAACAGCCUUUGAUUAGGUAUUGUUGUCUCCAUUUUAUAGAUGAGGAAACUGAGGCAGUAUGACUGAGGCCGAGAGCAGUGGUUAAGACAGACUUGGAAUUCUCGGGUGCCAA: 0.465
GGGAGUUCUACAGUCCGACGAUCAGGGGUUGUAGCCUUGCUGGGCAGCCUCUCAGAGCAAGGUUGUUCAGAUCUCCCUUGCUAUUACAGUAGGUUACUAUUAAUGAGGGCAGCACCUGAUGCCUUUUGUACUGUGGAAUUCUCGGGUGCCAA: 1.06
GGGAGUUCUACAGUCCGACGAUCAGUAAUGCAAAUAACAAAACUGCAACACUAUUUUUAAAAAGAUAAAUAUCUGAGUUAAAAUUACUGAAUCUUUAUUUUACACCUAAAAAAAUAUGAGAACAAGGUACAUGUGGAAUUCUCGGGUGCCAA: 0.565
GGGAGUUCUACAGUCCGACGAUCGGCAGGGCUAUUCUUUUUAUUUCUGCGAGGGACAAGAGUCUGGCUUUUAAGCUGCAGCCCCGCUGUUCCUUUUCUCCUCUGUCCCAUUUCCUACCUUACAUGAAAUCCAUUGGAAUUCUCGGGUGCCAA: 0.221

Block 3 — method: universal PBM; form: double-stranded DNA, one strand shown; matrix: in vitro; tested at: not given; reading: higher = stronger binding; endpoint: E-score
Target: Sal-like protein 4, full length isoform B (SALL4, Homo sapiens, UniProt Q9UJQ4-2, residues 1-616)
Notes: 8-mer, flanks averaged, mean of replicates
ATCTCAAC: 0.157
GAGGCACA: -0.0571
AATTGAGA: 0.162
ATCCTGAA: 0.139
ACTTGCCC: -0.114
AGGCTAGG: -0.215
CTAAATCA: 0.117
TGCGAACA: 0.115
GGTTAAAC: 0.102
AGTTGCTA: 0.173
AACCCGCC: -0.193
AAAAGATG: 0.171
CCCCACCC: -0.0611
ATTTACCC: 0.0832
GCTTAAAA: 0.0829
TTCGAAAA: 0.171
CGTGGAGA: -0.122
ACTTAACG: -0.125
AAGCCGCA: -0.0467

Block 4 — method: RNA Bind-n-Seq; form: RNA; matrix: in vitro; tested at: not given; notes: RNA with constant flanks, ends assumed; reference: input RNA pool; reading: higher = stronger binding; endpoint: bound/input enrichment
Target: RING finger protein unkempt homolog, zinc fingers 1-6, GST-SBP tag (UNK, Homo sapiens, UniProt Q9C0B0, residues 30-357)
UniProt Q9C0B0, sequence (30-357, looked up): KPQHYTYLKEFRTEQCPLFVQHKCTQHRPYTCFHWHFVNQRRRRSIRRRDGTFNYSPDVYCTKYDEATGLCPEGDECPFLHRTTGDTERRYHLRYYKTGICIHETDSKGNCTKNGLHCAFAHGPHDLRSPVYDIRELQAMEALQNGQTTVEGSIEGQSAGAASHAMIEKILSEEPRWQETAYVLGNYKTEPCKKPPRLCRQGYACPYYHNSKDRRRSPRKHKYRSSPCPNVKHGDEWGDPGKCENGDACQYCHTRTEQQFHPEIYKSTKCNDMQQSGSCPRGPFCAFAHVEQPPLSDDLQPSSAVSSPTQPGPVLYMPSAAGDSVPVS
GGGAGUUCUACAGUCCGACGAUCAACCUUCCAUCGUUGCCAGAUAUCCCACCUAUACAGUUGGAAGAUGCUGGCUCAAGCCGUUCCGAUAAUCUACUGAGUAGAUAUAUCUCAGGCAGUCAUCUACCCCCUCAGCCUACAAGUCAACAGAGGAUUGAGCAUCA: 0.164 ratio
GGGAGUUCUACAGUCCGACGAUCGGCUAUUUAUUGCAUUCUCCUUUGUAAACCCAGUCUAGGGUAAGCUUAAUACUUUACCCACAGGGCCGCUCUUCAGAAAACCUAAUCAGUCUAUUUUGUGCCCAGGUUUGUGUGUGUGUGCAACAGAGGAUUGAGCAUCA: 0.409 ratio
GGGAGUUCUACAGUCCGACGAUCGGAAAUAACAAUCAAAAUAAACCAGGGUUCUUACGAAAGAAUCAGUAUACAAACACCAAAUCCGAAGUCAAGAAAAUCCCUCAGGAAUUGAACAACAUUACCAAGCUCAAUGAACACUUCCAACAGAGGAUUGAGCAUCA: 0.219 ratio
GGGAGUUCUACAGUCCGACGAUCCAACAAAAGAUAAACAAAUUUGCACGGAAUACAAGUAGAAUCACAGAGCUGAAGGAAGAAACCGAAGUAAAAAAGAAACAACUCCAAAACCUAGAAGAUGCUUGUGAUGACAUCAUGCUUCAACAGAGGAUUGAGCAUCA: 0.442 ratio
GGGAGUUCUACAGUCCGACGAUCUCCUGUCUCGAUUUACUCGAAAUGAGUUUAAUCUGGAAAGCAAGAGCACCAUUGGAGCCGAGUUUGCAACAAGAAGCAUCCAGGUUGAUGGAAAAACAAUAAAGGCACAGAUAUGGGACACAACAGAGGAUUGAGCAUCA: 0.241 ratio
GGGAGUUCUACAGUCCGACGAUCAUGAUGGGCCACGGAUCUGACUACUCACUCAGUGAAGUGCUGUGGGUCUGUGCCAACCUCUUCCGUGAUGUCCAAUUCAAGAUGAGUCAUAAGAGGAUCAUGCUGUUCACCAAUGAAGACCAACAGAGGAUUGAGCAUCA: 0.107 ratio
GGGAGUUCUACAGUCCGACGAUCCCAAAAGCAGUGGUUUCUCCUCCAAAGUUUGUAUUUGGUUCAGAGUCUGUUAAAAGCAUUUUCCGCCGUGAAAAAUCAAAACCAUUUGCAUUCGGCAACAGUUCAGCCACUGGGUCUUUGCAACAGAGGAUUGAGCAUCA: 0.119 ratio
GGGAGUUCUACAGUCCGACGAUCACUCACGUGCCCAUGUUACAAGUCUGGACUGCCGACAAACCACAUCCACAGGAAGAGUAUUCCGAUUGCCUGUGGGCCCAGAUUCAGAAAUUGAAAAAAGACCGGUGGCAGGAGAGGCACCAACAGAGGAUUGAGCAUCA: 0.202 ratio
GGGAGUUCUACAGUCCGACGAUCCAUCAUUAUGCCUAUAAUGUGCCGCUUUGUGAUUGGGCAUUUGCCUACUUUUCUUUCAUAAUCCGUGAUAUAUGCGAUGUAAAACCACUAGUAAAGGUACAUUUUAAUACUUGUUAUUUUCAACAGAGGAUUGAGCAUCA: 0.264 ratio
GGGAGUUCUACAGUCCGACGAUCUGGCGGUUCAGCAACAUGAAGCAGUGGAAUGUCAACUGGGAGAUCAAGAUGGUCACUGCCGAGUUUGCAGAUGAGGUCCGGUUGUCCUUCAUCUGUACCGAAGUAGACUGCAAGGUGGUCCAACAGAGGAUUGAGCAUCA: 0.12 ratio
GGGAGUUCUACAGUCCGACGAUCUACUGCUGGUAUUGUACCAGGAACAUUUUCUUUUAUUGUUACUUGCUUUUUAAACUUUGUUCCGCCACUUAAAGAAAACCUGCUCAUGGCACAACUUGCCUCAAAUCCAUUCCAAGUUGUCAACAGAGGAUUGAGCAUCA: 0.481 ratio

For quick reference, copied from above (block 2):
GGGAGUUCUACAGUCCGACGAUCAGGGGUUGUAGCCUUGCUGGGCAGCCUCUCAGAGCAAGGUUGUUCAGAUCUCCCUUGCUAUUACAGUAGGUUACUAUUAAUGAGGGCAGCACCUGAUGCCUUUUGUACUGUGGAAUUCUCGGGUGCCAA: 1.06
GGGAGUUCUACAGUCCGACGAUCGGCAGGGCUAUUCUUUUUAUUUCUGCGAGGGACAAGAGUCUGGCUUUUAAGCUGCAGCCCCGCUGUUCCUUUUCUCCUCUGUCCCAUUUCCUACCUUACAUGAAAUCCAUUGGAAUUCUCGGGUGCCAA: 0.221
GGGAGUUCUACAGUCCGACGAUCCAAAUAUCCUAAAAUAGGAAAUACUUGAACGUUUUAAUGAGAAAUUUCUAUGGUUGAAAUUCAUAGCCUUUCACUAUAGGAAAUGUUAAGAAAAAUUUAAACAGUUUAAGUGGAAUUCUCGGGUGCCAA: 0.627
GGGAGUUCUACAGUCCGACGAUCGAAGAGCCAGGUAGCACCUGAAAACGCUGCACGUGUGUUUGUGAAACCUGUAGUGAAGUAGACUUGGCCGUCCCUGGACAGUGAGGUCAGAUGUGAAUACAUAUUGUAAGUGGAAUUCUCGGGUGCCAA: 3.29
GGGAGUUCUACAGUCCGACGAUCCCCAGGCUGUCUCAGUGUCAUCAUGUUGCCAGGUCUUUGUGUUUCUGCAGCCCACAUGAUCCUUGAGAGUUUUGGGUUUCGGUAACACCUCAGGGCCACUGCAUUGUUUUUGGAAUUCUCGGGUGCCAA: 0.377
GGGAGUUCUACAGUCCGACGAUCUAAAGGCUGACAUCUGGGGUCUAGCCUAGCACCUGAAGAUACUUGUGAUGUCUAACUCUGCAUAGCCUUUUCUCUUCAUAUCUGCGGCCUAUCUUUUCCCCUUACAUAUGUGGAAUUCUCGGGUGCCAA: 0.839
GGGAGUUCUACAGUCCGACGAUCCAUCACAGAUGGGAGAAGGCCAUGCCAGCCACGUCCGCCGAGGGGCGCCAGCCUGAAGCUGCCAGGCCCUGAGGUUCAGACCCUGGACCCCAUAGCUGGAGGCCUGUGGUUGGAAUUCUCGGGUGCCAA: 0.179
